Published values of several laboratories.
Compare with care: the assays were run in different laboratories. Numbers after ± are the reported error.

`CC[C@H](C)[C@H](NC(=O)[C@H](CCCNC(=N)N)NC(=O)[C@H](CCCCN)NC(=O)[C@H](Cc1ccc(O)cc1)NC(=O)[C@H](CC(=O)O)NC(=O)[C@H](C)NC(=O)CNC(=O)CCOCCOCCOCCNC(=O)CN1CCN(CC(=O)O)CCN(CC(=O)O)CCN(CC(=O)O)CC1)C(=O)N[C@H](C(=O)N[C@H](C(=O)N[C@@H](CCCCN)C(=O)N[C@H](C(=O)N[C@@H](CC(N)=O)C(N)=O)C(C)C)C(C)C)[C@@H](C)O` [copper-64 labelled] gave a tissue uptake of 0.68 ± 0.129 %ID/g (ex vivo gamma counting; C57BL/6J male mice, B16-F10 tumour, spleen; intravenous, 1.85 MBq, 40 min).
For `CCCC[C@H]1C(=O)N(C)[C@@H](CCCC)C(=O)N[C@@H](CCCNC(=O)CN2CCN(CC(=O)O)CCN(CC(=O)O)CCN(CC(=O)O)CC2)C(=O)N[C@H](C(=O)NCC(N)=O)CSCC(=O)N[C@@H](Cc2ccc(O)cc2)C(=O)N(C)[C@@H](C)C(=O)N[C@@H](CC(N)=O)C(=O)N2CCC[C@H]2C(=O)N[C@@H](Cc2c[nH]cn2)C(=O)N[C@@H](CC(C)C)C(=O)N(C)CC(=O)N[C@@H](Cc2c[nH]c3ccccc23)C(=O)N[C@@H](CO)C(=O)N[C@@H](Cc2c[nH]c3ccccc23)C(=O)N1C` [gallium-68 labelled], the tissue uptake was 4.9 ± 1.14 %ID/g (NOD/SCID mice, CHO-hPD-L1 xenograft, stomach; 60 min, together with: blocking agent 50 µg co-injected).
`CC[C@H](C)[C@H](NC(=O)[C@H](CCCNC(=N)N)NC(=O)[C@H](CCCCN)NC(=O)[C@H](Cc1ccc(O)cc1)NC(=O)[C@H](CC(=O)O)NC(=O)[C@H](C)NC(=O)CNC(=O)CCOCCOCCOCCNC(=O)CN1CCN(CC(=O)O)CCN(CC(=O)O)CCN(CC(=O)O)CC1)C(=O)N[C@H](C(=O)N[C@@H](CC(C)C)C(=O)N[C@@H](CCCCN)C(=O)N[C@H](C(=O)N[C@@H](CC(N)=O)C(N)=O)C(C)C)[C@@H](C)O` [copper-64 labelled] gave a tissue uptake of 3.7 ± 0.954 %ID/g (ex vivo gamma counting; C57BL/6J male mice, B16-F10 tumour, liver; intravenous, 1.85 MBq, 40 min).
The tissue uptake of `CC(C)C[C@@H](NC(=O)[C@@H](CCCNC(=N)N)NC(=O)[C@@H](Cc1c[nH]cn1)NC(=O)[C@@H](Cc1c[nH]c2ccccc12)NC(=O)[C@@H](Cc1c[nH]cn1)NC(=O)[C@@H](Cc1ccccc1)NC(=O)[C@H](NC(=O)[C@@H](Cc1ccc(O)cc1)NC(=O)CNC(=O)CNC(=O)CCOCCOCCOCCNC(=O)CN1CCN(CC(=O)O)CCN(CC(=O)O)CC1)[C@H](C)O)C(=O)N[C@H](CC(N)=O)C(=O)N1CCC[C@@H]1C(=O)O` [gallium-68 labelled] is reported as 1.71 ± 0.39 %ID/g (C57BL/6 mice, male, spleen; intravenous, 1.85 MBq, 60 min, together with: blocking antibody).
`CSCC[C@H](NC(=O)CNC(=O)[C@H](CCCCN)NC(=O)[C@H](CC(C)C)NC(=O)[C@@H]1CCCN1C(=O)[C@H](CO)NC(=O)[C@H](Cc1c[nH]cn1)NC(=O)[C@H](Cc1c[nH]c2ccccc12)NC(=O)[C@H](CCCNC(=N)N)NC(=O)[C@H](CC(C)C)NC(=O)[C@H](CCCNC(=N)N)NC(=O)[C@H](Cc1c[nH]c2ccccc12)NC(=O)[C@H](CS)NC(=O)CCCCCNC(=O)CN1CCN(CC(=O)O)CCN(CC(=O)O)CCN(CC(=O)O)CC1)C(=O)O` [copper-64 labelled] gave a tissue uptake of 7.91 ± 0.9 %ID/g (PET imaging; BALB/c nude mice, liver; intravenous, dose not given, 4 h, Huh-7 tumour-bearing).
`CC[C@H](C)[C@H](NC(=O)[C@@H](Cc1c[nH]c2ccccc12)NC(=O)[C@@H]1CCCN1C(=O)[C@H](CCCCN)NC(=O)[C@H](CCCCN)NC(=O)CCNC(=O)CCNC(=O)CN1CCN(CC(=O)O)CCN(CC(=O)O)CCN(CC(=O)O)CC1)C(=O)N[C@@H](C[Si](C)(C)C)C(=O)O` [gallium-68 labelled] has a tissue uptake of 0.2 ± 0.07 %ID/g (ex vivo biodistribution; nude mice, HT-29 xenograft, blood; 90 min, together with: levocabastine 0.5 µmol).
With `CC[C@H](C)[C@H](NC(=O)[C@H](CCCCN)NC(=O)CNC(=O)[C@H](CC(C)C)NC(=O)[C@H](Cc1ccccc1)NC(=O)[C@H](CCCCN)NC(=O)[C@H](CO)NC(=O)[C@H](Cc1ccccc1)NC(=O)[C@H](Cc1c[nH]c2ccccc12)NC(=O)[C@H](CCC(N)=O)NC(=O)[C@@H](NC(=O)[C@H](Cc1ccccc1)NC(=O)CCCCCNC(=O)CN1CCN(CC(=O)O)CCN(CC(=O)O)CCN(CC(=O)O)CC1)C(C)C)C(=O)N[C@@H](CCC(=O)O)C(=O)N1CCC[C@H]1C(=O)N[C@@H](CC(=O)O)C(=O)N[C@H](C(=O)N[C@@H](CO)C(=O)N[C@@H](CCC(N)=O)C(=O)N[C@H](C(=O)N[C@@H](CCC(N)=O)C(=O)N[C@@H](CC(=O)O)C(=O)N1CCC[C@H]1C(=O)N[C@@H](CC(N)=O)C(=O)N[C@@H](CC(=O)O)C(=O)N[C@@H](CCC(N)=O)C(=O)N[C@@H](Cc1ccc(O)cc1)C(=O)N[C@@H](CCC(=O)O)C(=O)N1CCC[C@H]1C(=O)N[C@@H](Cc1ccccc1)C(=O)O)C(C)C)C(C)C` [copper-64 labelled] the tissue uptake was 4.91 ± 0.8 %ID/g (GZMB-/- mice, CT26 tumour-bearing, small intestine; 2 h, vehicle-treated).
The tissue uptake of `C[C@H](O)[C@@H](NC(=O)[C@H]1CCCN1C(=O)[C@@H](CCCCN)NC(=O)[C@@H](CO)NC(=O)[C@@H](Cc1ccc(O)cc1)NC(=O)[C@@H](CC(N)=O)NC(=O)CCOCCOCCOCCNC(=O)CN1CCN(CC(=O)O)CCN(CC(=O)O)CCN(CC(=O)O)CC1)C(=O)N[C@H](CC(=O)O)C(=O)N[C@H](CCCNC(=N)N)C(=O)N[C@H](CCC(N)=O)C(=O)N[C@H](Cc1ccc(O)cc1)C(=O)N[C@H](Cc1c[nH]cn1)C(=O)N[C@H](Cc1ccccc1)C(N)=O` [gallium-68 labelled] is reported as 0.89 ± 0.19 %ID/g (BALB/c nude mice U-87 MG tumour, tumor; intravenous, 1.85 MBq, 2 h, radiolabelled).

Repeated from above:
For `CCCC[C@H]1C(=O)N(C)[C@@H](CCCC)C(=O)N[C@@H](CCCNC(=O)CN2CCN(CC(=O)O)CCN(CC(=O)O)CCN(CC(=O)O)CC2)C(=O)N[C@H](C(=O)NCC(N)=O)CSCC(=O)N[C@@H](Cc2ccc(O)cc2)C(=O)N(C)[C@@H](C)C(=O)N[C@@H](CC(N)=O)C(=O)N2CCC[C@H]2C(=O)N[C@@H](Cc2c[nH]cn2)C(=O)N[C@@H](CC(C)C)C(=O)N(C)CC(=O)N[C@@H](Cc2c[nH]c3ccccc23)C(=O)N[C@@H](CO)C(=O)N[C@@H](Cc2c[nH]c3ccccc23)C(=O)N1C` [gallium-68 labelled], the tissue uptake was 4.9 ± 1.14 %ID/g (NOD/SCID mice, CHO-hPD-L1 xenograft, stomach; 60 min, together with: blocking agent 50 µg co-injected).
